Measurements gathered from unrelated publications.
Numbered parts are unrelated; each lists some results of a single study. Positions count from the first letter of the parent shown. pIC50: −log10 of the molar value.
Chain of UniProt P03372 (whole entry, looked up): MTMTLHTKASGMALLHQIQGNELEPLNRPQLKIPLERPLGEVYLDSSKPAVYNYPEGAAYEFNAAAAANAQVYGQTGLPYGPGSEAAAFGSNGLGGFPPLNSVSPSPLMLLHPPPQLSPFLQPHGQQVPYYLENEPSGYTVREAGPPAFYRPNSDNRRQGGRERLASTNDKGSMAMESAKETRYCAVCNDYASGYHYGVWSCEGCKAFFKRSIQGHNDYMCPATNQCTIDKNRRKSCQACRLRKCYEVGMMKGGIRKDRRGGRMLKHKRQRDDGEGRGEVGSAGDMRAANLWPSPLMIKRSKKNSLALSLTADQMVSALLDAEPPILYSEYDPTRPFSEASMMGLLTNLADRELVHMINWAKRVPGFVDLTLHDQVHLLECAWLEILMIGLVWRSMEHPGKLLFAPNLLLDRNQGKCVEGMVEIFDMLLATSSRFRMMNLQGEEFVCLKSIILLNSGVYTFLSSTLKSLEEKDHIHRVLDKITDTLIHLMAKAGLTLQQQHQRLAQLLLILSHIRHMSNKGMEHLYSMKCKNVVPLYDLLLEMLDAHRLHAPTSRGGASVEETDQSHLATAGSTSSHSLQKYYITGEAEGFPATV

Series 1
Target: CCNE2, cyclin fold, Cln2 fusion (human)
Method: yeast growth competition, sequencing
Matrix: yeast
Setting: strong parent motif
Baseline: not given
Reading: higher = stronger binding
Endpoint: normalised enrichment score
Parent: viral docking peptide; TSVRRALFTGGSD
TSVRRANFTGGSD [L7N]: 0.438
TSVRMALFTGGSD [R5M]: 0.271
TSHRRALFTGGSD [V3H]: 1.83
TSVRRALKTGGSD [F8K]: 0.00642
TSVKRALFTGGSD [R4K]: 3.54
TFVRRALFTGGSD [S2F]: 2.39
TTVRRALFTGGSD [S2T]: 4.21
TSVCRALFTGGSD [R4C]: 3.41

Series 2
Target: UDP-N-acetylglucosamine--peptide N-acetylglucosaminyltransferase 110 kDa subunit (OGT, Homo sapiens, UniProt O15294)
Read-out: binding
Method: phage display NGS
Form: peptide
Concentration: concentration not given
Baseline: input library
Endpoint: enrichment fold change
Residues (O15294 1-1046): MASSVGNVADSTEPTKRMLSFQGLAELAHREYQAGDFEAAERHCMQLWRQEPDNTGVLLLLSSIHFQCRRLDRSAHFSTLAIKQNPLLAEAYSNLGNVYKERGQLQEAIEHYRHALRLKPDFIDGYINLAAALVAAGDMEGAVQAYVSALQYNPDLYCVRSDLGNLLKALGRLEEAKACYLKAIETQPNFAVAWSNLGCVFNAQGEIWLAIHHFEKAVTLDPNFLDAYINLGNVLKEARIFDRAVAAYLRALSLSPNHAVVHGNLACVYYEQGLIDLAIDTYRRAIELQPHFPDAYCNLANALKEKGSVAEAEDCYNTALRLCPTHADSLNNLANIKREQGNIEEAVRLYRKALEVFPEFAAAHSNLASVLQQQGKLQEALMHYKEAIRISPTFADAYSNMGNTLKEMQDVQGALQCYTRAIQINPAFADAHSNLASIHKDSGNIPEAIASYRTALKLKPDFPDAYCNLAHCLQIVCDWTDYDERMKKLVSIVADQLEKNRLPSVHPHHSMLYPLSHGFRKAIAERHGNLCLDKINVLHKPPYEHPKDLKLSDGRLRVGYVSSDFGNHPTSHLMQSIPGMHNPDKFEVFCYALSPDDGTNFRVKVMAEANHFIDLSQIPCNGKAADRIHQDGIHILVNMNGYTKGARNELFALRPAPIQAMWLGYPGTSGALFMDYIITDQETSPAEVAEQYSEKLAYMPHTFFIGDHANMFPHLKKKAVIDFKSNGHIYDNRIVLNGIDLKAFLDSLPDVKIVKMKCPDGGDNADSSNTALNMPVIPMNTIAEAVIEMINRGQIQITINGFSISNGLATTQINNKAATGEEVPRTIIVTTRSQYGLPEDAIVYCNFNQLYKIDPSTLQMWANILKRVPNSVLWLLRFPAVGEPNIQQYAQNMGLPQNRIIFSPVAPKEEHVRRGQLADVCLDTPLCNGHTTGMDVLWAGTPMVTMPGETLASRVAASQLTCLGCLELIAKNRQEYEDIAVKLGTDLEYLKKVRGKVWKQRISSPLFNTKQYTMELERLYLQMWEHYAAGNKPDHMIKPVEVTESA
FMPMYEIKYAKREDN: 20.1
TVVMTLPHHHHGRGD: 5.65
HSSDIPEHRHHEHIR: 11.2
TAPFYPPAYEI: 1.59
QHEFQRILSHHHSYS: 4.57

Series 3
Target: vanadate, free oxyanion
Method: microfluidic competitive inhibition
Matrix: in vitro, cell-free expressed
Concentration: not given
Setting: derived from inhibition constants, unchanged parent 676 nM
Reading: lower = stronger binding
Endpoint: oxyanion analog dissociation constant
Parent: PafA, mature enzyme, eGFP fusion (Elizabethkingia meningoseptica, UniProt Q9KJX5); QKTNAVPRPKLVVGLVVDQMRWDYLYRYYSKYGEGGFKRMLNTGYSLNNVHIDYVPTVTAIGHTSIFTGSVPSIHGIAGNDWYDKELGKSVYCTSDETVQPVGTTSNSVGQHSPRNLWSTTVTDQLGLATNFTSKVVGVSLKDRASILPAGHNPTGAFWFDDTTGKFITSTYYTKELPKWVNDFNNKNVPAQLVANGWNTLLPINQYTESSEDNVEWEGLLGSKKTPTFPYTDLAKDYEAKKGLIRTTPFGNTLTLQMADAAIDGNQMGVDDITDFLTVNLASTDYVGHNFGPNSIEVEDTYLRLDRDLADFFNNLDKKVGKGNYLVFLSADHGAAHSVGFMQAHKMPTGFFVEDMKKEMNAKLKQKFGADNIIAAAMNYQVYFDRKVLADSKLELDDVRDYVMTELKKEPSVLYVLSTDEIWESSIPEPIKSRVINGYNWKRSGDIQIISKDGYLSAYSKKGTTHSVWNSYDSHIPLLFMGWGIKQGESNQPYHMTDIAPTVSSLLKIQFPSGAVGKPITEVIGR
G35V: 586 nM
V523G: 939 nM
G156V: 560 nM
H345V: 753 nM
V50A: 513 nM
G243V: 491 nM
S30V: 546 nM
V523A: 642 nM

Further values, each from its own experiment
CNC(=O)c1ccc(-c2cnn3ccc(C(=O)N(C)c4ccc(Cl)c(C(=O)OC)c4)cc23)cc1
pIC50 (Estrogen receptor (ESR1, Homo sapiens, UniProt P03372); cell-free assay): < 4.52

Excerpt of the above (series 1):
TSVRRALKTGGSD [F8K]: 0.00642
TSVKRALFTGGSD [R4K]: 3.54
TFVRRALFTGGSD [S2F]: 2.39
